Experimental data gathered from unrelated publications.
Each numbered part is a random draw from the data of one study; scales do not carry over between parts.
UniProt Q9UM73, sequence (whole entry, unmodified, looked up): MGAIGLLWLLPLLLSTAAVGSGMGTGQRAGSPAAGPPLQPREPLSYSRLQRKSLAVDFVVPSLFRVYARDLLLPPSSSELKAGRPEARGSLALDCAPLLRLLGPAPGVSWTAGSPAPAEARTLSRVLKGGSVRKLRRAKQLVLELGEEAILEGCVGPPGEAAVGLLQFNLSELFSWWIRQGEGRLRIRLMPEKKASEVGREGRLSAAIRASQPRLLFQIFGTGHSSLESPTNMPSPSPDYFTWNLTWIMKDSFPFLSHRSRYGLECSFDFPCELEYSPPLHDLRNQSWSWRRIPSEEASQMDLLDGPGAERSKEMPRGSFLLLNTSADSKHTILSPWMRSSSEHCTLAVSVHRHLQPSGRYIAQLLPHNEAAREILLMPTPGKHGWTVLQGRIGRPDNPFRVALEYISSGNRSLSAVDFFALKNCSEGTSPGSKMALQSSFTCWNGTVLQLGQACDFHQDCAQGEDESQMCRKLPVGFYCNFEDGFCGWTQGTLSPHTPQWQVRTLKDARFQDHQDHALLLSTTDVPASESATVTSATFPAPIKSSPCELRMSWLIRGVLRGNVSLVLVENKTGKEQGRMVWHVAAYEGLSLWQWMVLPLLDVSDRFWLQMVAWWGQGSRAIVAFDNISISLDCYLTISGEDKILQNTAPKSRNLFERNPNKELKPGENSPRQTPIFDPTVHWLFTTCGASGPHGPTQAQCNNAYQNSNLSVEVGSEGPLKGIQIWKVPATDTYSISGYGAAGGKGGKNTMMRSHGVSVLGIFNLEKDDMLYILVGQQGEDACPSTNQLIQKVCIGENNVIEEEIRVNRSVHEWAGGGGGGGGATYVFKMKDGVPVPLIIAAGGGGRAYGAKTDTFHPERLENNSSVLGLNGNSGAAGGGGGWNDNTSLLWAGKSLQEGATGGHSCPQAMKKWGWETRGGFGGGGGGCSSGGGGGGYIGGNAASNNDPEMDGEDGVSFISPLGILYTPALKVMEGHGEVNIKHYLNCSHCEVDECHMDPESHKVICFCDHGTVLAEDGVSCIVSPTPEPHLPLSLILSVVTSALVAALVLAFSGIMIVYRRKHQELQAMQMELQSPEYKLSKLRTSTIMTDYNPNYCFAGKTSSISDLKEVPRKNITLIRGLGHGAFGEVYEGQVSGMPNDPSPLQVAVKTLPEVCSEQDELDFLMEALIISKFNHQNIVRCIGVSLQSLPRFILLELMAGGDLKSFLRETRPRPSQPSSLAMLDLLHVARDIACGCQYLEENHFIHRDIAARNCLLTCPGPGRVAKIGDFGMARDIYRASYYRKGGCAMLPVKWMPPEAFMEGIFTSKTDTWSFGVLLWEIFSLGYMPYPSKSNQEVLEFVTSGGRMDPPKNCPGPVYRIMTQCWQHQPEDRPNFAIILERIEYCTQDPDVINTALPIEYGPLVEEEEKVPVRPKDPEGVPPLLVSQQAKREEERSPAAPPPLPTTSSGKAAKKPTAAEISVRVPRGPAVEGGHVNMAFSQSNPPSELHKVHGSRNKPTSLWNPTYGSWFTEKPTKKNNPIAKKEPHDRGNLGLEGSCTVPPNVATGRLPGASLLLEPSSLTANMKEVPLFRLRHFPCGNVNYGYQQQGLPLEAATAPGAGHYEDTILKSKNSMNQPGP
UniProt Q6DT37, sequence (whole entry, looked up): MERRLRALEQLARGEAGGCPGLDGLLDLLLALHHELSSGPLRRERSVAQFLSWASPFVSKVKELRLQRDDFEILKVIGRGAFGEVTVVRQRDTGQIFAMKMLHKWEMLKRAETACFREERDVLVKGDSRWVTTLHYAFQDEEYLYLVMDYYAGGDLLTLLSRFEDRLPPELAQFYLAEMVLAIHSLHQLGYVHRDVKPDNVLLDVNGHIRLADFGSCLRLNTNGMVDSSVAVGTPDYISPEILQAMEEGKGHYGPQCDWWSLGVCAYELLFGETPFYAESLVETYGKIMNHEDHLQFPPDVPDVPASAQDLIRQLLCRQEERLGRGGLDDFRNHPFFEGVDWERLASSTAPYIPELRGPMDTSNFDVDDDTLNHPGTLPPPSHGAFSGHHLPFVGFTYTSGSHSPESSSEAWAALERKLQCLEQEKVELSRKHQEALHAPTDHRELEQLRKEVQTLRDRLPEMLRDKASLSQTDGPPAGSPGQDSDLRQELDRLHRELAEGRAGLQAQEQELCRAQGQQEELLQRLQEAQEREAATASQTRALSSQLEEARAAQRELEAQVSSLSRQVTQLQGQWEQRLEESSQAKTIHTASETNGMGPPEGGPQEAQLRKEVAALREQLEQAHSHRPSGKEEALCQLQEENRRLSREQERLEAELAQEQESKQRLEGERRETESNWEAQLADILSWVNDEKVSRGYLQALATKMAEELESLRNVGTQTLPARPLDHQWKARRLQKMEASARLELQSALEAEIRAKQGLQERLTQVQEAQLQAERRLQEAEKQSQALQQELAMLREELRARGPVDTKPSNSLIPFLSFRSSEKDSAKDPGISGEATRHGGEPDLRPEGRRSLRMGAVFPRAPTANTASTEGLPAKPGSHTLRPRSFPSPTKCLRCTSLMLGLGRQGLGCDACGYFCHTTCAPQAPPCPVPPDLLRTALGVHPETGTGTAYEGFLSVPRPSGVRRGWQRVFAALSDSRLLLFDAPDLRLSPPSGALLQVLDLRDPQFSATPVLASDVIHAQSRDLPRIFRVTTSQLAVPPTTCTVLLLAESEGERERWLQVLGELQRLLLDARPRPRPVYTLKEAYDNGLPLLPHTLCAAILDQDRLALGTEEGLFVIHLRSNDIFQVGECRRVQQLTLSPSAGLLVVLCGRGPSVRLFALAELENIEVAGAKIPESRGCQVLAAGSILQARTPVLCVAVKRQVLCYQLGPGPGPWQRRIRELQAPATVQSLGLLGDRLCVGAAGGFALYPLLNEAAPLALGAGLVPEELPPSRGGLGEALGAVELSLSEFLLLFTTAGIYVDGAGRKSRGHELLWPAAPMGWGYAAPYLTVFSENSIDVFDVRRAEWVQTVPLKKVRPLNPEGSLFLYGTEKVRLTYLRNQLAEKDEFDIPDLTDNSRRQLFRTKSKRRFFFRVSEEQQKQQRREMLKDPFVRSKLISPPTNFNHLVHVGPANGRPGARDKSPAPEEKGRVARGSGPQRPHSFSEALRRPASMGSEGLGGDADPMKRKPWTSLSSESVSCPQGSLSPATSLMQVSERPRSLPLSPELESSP
UniProt Q8NE63, sequence (whole entry, looked up): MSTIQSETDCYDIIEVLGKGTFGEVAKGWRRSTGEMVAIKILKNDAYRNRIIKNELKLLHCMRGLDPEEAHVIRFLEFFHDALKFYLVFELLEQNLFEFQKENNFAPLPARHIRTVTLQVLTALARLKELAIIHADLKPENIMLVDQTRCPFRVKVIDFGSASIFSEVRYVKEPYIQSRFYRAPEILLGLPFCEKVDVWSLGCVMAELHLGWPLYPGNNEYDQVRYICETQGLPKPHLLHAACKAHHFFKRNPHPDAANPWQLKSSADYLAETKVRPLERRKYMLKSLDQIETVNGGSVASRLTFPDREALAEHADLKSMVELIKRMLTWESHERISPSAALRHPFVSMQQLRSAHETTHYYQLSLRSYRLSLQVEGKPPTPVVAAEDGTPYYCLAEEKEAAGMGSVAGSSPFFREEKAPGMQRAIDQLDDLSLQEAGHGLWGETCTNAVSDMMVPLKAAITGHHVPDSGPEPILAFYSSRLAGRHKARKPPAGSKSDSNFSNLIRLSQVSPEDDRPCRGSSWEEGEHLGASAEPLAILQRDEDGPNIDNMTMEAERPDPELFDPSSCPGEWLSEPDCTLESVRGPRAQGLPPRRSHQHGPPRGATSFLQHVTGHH
UniProt P54764, sequence (whole entry, looked up): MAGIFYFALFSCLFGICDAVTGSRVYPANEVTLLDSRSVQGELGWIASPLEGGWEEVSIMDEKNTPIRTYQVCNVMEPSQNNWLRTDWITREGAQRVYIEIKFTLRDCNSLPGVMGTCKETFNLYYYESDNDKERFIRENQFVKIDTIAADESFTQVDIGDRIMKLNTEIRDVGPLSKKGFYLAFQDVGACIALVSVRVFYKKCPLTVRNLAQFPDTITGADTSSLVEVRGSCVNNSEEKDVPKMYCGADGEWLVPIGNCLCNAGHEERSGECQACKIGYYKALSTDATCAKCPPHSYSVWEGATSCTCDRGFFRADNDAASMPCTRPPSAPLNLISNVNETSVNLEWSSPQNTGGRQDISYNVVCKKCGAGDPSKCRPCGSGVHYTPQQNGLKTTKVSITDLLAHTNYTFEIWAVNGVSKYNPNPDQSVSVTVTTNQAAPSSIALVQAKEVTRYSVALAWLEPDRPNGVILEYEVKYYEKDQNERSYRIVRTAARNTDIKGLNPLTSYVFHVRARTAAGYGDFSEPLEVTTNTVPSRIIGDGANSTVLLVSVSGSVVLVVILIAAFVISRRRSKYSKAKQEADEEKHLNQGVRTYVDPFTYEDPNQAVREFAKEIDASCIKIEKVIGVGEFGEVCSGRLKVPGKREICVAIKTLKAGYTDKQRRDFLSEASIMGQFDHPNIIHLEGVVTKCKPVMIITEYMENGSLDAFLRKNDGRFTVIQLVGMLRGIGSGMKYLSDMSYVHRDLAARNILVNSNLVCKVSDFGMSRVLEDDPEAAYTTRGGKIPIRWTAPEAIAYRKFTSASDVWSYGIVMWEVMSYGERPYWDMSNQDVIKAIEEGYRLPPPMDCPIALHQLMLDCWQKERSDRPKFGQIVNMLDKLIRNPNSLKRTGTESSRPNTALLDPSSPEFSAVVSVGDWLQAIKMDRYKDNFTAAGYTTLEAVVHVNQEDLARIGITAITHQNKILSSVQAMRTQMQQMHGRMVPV

Study 1
SMILES: CO[C@H]1CC[C@H](CNc2ccc(S(=O)(=O)NC(=O)c3ccc(N4CCN(CC5=C(c6ccc(Cl)cc6)CC(C)(C)CC5)CC4)cc3Oc3cnc4[nH]ccc4c3)cc2[N+](=O)[O-])CC1
Tested at: 1 µM
target | effect on | technique | remaining binding [%]
CAMK1G (Homo sapiens, UniProt Q96NX5) | cell-free assay | competition with immobilised ligand | 73
TRPM6 (Homo sapiens, UniProt Q9BX84) | cell-free assay | competition with immobilised ligand | 87
LRRK2 (Homo sapiens, UniProt Q5S007) | cell-free assay | competition with immobilised ligand | 100
CSNK1G3 (Homo sapiens, UniProt Q9Y6M4) | cell-free assay | competition with immobilised ligand | 91
Tyrosine-protein kinase ABL1, phosphorylated (ABL1, Homo sapiens, UniProt P00519, H396P) | cell-free assay | competition with immobilised ligand | 94
TLK2 (Homo sapiens, UniProt Q86UE8) | cell-free assay | competition with immobilised ligand | 87
EIF2AK1 (Homo sapiens, UniProt Q9BQI3) | cell-free assay | competition with immobilised ligand | 100
DYRK2 (Homo sapiens, UniProt Q92630) | cell-free assay | competition with immobilised ligand | 100
MYLK3 (Homo sapiens, UniProt Q32MK0) | cell-free assay | competition with immobilised ligand | 100
HIPK4 (Homo sapiens, UniProt Q8NE63) | cell-free assay | competition with immobilised ligand | 4.4
PLK4 (Homo sapiens, UniProt O00444) | cell-free assay | competition with immobilised ligand | 100
ALK (Homo sapiens, UniProt Q9UM73, L1196M) | cell-free assay | competition with immobilised ligand | 100
EPHA4 (Homo sapiens, UniProt P54764) | cell-free assay | competition with immobilised ligand | 88
CDC42BPG (Homo sapiens, UniProt Q6DT37) |  | competition binding | 75
Insulin receptor (INSR, Homo sapiens, UniProt P06213) | cell-free assay | competition with immobilised ligand | 91

Study 2
Compound: O=C1CCC(N2Cc3cc(C4CCN(Cc5ccccc5)CC4)ccc3C2=O)C(=O)N1 (stereo not shown)
Sample: plasma
species | route | dose | time | concentration [ng/mL]
male Sprague-Dawley rat | intravenous | 1 mg/kg | 15 min | 109
male CD-1 mouse | oral | 3 mg/kg | 2 h | 108
male CD-1 mouse | intravenous | 1 mg/kg | 2 h | 41.6
male CD-1 mouse | intravenous | 1 mg/kg | 30 min | 104
male CD-1 mouse | oral | 3 mg/kg | 6 h | 10.4
male CD-1 mouse | intravenous | 1 mg/kg | 4 h | 21.2
male Sprague-Dawley rat | intravenous | 1 mg/kg | 4 h | 21.4

Study 3
Organism: Sarcocystis neurona
Effect on: parasite growth
Tested at: 10 µM
Time: 96 h
Notes: first screen
SMILES | inhibition [%]
CN1[C@@H]2C[C@@H](OC(=O)[C@H](CO)c3ccccc3)C[C@H]1[C@@H]1O[C@@H]12 | -14.3
NC(=O)c1cnccn1 | -25.9
CCN(CC)CCNC(=O)c1ccc(N)cc1 | -6.9
Cc1cccc(C)c1NC(=O)C(C)N (stereo not shown) | 4.3
CC(C)[C@H](N)C(=O)OCCOCn1cnc2c(=O)[nH]c(N)nc21 | 7.7
NC[C@H]1CC[C@H](C(=O)Oc2ccc(CCC(=O)O)cc2)CC1 | 7.5
Cc1cccc(Nc2ccncc2S(=O)(=O)NC(=O)NC(C)C)c1 | -17.1
CNC(=C[N+](=O)[O-])NCCSCc1csc(CN(C)C)n1 | -3.9

Other studies, line by line
SMILES | target | effect on | tested at | measurement | result
N#Cc1cnc2cnc(NCc3cccnc3)cc2c1Nc1ccc(F)c(Cl)c1 | Mitogen-activated protein kinase kinase kinase 8 (MAP3K8, Homo sapiens, UniProt P41279) | cell-free assay | 0.5 µM | remaining signal | 79.1%
